Measured values collected from several papers.
Parts stem from different laboratories: compare values within a part only. Substitutions count along the parent as printed.

Study 1
Target: RNA binding protein fox-1 homolog 2, RRM domain, GST-SBP tag (RBFOX2, Homo sapiens, UniProt O43251-10, residues 100-194)
Method: RNA Bind-n-Seq
Form: RNA
Medium: in vitro
Concentration: 365 nM
Setting: natural RNA segment, single round, ends assumed
Relative to: no-protein control
Reading: higher = stronger binding
All sequences stand within: GGGAGUUCUACAGUCCGACGAUC … UGGAAUUCUCGGGUGCCAA
Residues (chain): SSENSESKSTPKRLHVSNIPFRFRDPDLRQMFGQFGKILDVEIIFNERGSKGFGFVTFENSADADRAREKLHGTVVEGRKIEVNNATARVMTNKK
`GUGCCGAGGCAUGAAAGGCUAGUAUGAGCGAGAAAAGGAGAGCGCGUGCAGAGACUUGGUGGUGGAAAAUGGAUAUUUUUUAACUUGGAGAGAUGUGUCACUCAAUCCUG` — result for “RBNS enrichment (R)”: 2.15.
For `UAAUCCCAGGAACCACUAGCAGUAGUGGGGCGCCGCCAAUCUAACAUGAGCACAGGUGCUUCAUGACAAACAUUACUAGCAUGUUCAACUGCACCAUGUUCUGGCACUGU`, “RBNS enrichment (R)” read 0.43.
For `CUCCCCUCUUUAAGAACACAUAGCUUAGGAUUGCCUUGGCGAUGUGGGCUCUUUUUUGGUUCCAUAUGAACUUAAGUAGUUUUUUCCAAUUCUGUGAAGAAAGUCAUUGG`, “RBNS enrichment (R)” read 0.312.
For `GGGUGGGUGGGGGCUGACCCCAGCUUCCAGGGGACUGUCACUGUGGACGCCAAAAUGGCAUAACUGAGAUAAGGUGAAUAAGUGACAAAUAAAGCCAGUUUUUUACAAGG`, “RBNS enrichment (R)” read 0.239.
For `GUUCCCCAGGAAAUGAUCUUCCACUUGAGCAACCUUUUACUUGAUACGAUUUGCACCUUUCUGUUUUCCUGCAGUCAGGGUGGUGGCCUGCAGGGACCUGAGCUUUGCUA`, “RBNS enrichment (R)” read 0.963.
For `UCAGAAUGCUAUAUUUUUAACAGCACUCCAGCAUUUUUCUUCAUGUAUCACCUUCACUGACUCCAUUGAGUCAUUGAGCAUCUGUACAUAUCCUUCACCACCCCCAGUCC`, “RBNS enrichment (R)” read 0.821.
`ACUGCUUUAUUACACACUGGUUUCAUUGUCAUUGCAAAAACUUACCCUGGUUGUGGGGGAGAGUUCUAGAUCUGUGCCAUGAUCCAUACACUGGCUAAUAGAGUACAUAA`: “RBNS enrichment (R)” 0.362.
`UUUGUAGAUGAAAAAAAUCAUUAUGUUUAGAGGUCUAAUGCUAUGUUUUCAUAUUACAGAGUGAAUUUGUAUUUAAACAAAAAUUUAAAUUUUGGAAUCCUCUAAACAUU`: “RBNS enrichment (R)” 0.472.
For `AAACAGGAACCAAAUGUGACCUUGUGCAUAUAUUGGUAGCUGAAAAUCUUCAAGGCUACUGAUGGGUGGCCCCUUAAUCUUGUCUUUGAUUGCUGUGUGCAGGGAAAGGU`, “RBNS enrichment (R)” read 0.676.
Under “RBNS enrichment (R)”, `CCACCUUAAUCAGCAUCACUUGCAGAGACUGACCCUAAACAACACAGCAGGGGCAGGGAACGGGUAGGACUUGACCCUCUUGAAGGCAGCCCAGGAUGGGAGUAGGGUAU` is recorded as 1.22.
`AAGUAGAGUUUAGUAGGUUAUUACAAAAAGGGCAAGAGUUGUUUUGGUUUUGUUUCUUUCAAAAUAAUUUUUUUUCAAAAGAAUAACAAGGGUUAGGCAAAUGGGGGACC`: “RBNS enrichment (R)” 1.43.
`AUUCUCAUCAGGGUUUCUUGUGCCCUUCUGCUGUGGCAGUGACAACUGUGCCUAGCCGGGGCUGCCACAGCUCCCAGGUAUUUUCUACAGGACCAUCUGAGCGGGCAGCC`: “RBNS enrichment (R)” 0.352.

Study 2
Target: RING finger protein unkempt homolog, zinc fingers 1-6, GST-SBP tag (UNK, Homo sapiens, UniProt Q9C0B0, residues 30-357)
Chain of UniProt Q9C0B0 (30-357, looked up): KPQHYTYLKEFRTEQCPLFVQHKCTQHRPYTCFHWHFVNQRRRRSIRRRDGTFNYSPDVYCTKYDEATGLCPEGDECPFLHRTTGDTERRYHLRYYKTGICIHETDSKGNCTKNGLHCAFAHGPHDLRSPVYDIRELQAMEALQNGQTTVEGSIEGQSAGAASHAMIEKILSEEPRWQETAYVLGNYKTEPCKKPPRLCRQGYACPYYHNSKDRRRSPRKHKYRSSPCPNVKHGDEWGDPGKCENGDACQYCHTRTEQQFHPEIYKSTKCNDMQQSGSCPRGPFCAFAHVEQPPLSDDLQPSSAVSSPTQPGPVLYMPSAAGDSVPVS
Method: RNA Bind-n-Seq
Form: RNA
Medium: in vitro
Concentration: not given
Setting: RNA with constant flanks, human and mouse sites, ends assumed
Relative to: input RNA pool
Reading: higher = stronger binding
All sequences stand within: GGGAGUUCUACAGUCCGACGAUC … CAACAGAGGAUUGAGCAUCA
`UCUGCACUCCAGCUUGAAAGUGCCUUUGGCUCGAGAUUCCAGCUUAGAAAGUGCCACCAUAAUAACGACAAUUUGUAGAGAGACCAAAAAUAUUUCGAGAUCACCAUAAUGCCUUUGGUU` has a bound/input enrichment of 0.265 ratio.
The bound/input enrichment of `GGGUUCUAUGAAUUUUUAAAUUGGUUUGAUGAAAGAGCAUGGUAUCCACUAGGAAGAAUAGUAGGUGGUACUGUUUACCCAGGGUUGAUGAUAACCGCUGGCCUUAUUCAUUGGAUUUUA` is reported as 0.421 ratio.
With `CUGCAUCUUCACUACACAGUGAGCAUCACCAGUUUUAUCCCACGUUUUAACUUUCUAAGCAUAGAUCUGCCAGUGGUUGUGGAGACAUUUGUCAAGUACCUGAUUUCCCUCUCAGGAGCU` the bound/input enrichment was 0.479 ratio.
The bound/input enrichment of `AAGAGGGAUCUGUUUGCAAAAAUUAUUGAAGAUCAUCUGGCAAGCAGAAGUGAAGAGAACAUAGACCAGCUUGCAGGAUGAACAAGCUGCCCUGUUAGUGCAGUGCUUUGAAGUGGGACC` is reported as 0.319 ratio.
`UGCUAGCUCAAGAAGCACCAGAGGUAUAUACAGAGUAUUGGGAUCAGAUCCAGGAUCCAUAAUAGUUUCUCACCUUGAAUCAAGGAUUUAUAUGAUAUUCUUCUCAGAUUUACUUUGUGU` has a bound/input enrichment of 0.209 ratio.
`AAAGAACCUCUCUCUGAUGAAGAUGAGGAAGACAAUGAUGAUGUUGAACCCAUUUCUGAAUUUCGAUUUGUGCCCAGUGAUAAGUCAGCAUUGGAGGCGAUGUUCACAGCAAUGUGUGAG` gave a bound/input enrichment of 0.277 ratio.
The bound/input enrichment of `UCUAAUAUUAGCCUUGUCUUUGAUUUUAUGGAAACUGAUCUAGAGGUUAUAAUAAAGGAUAAUAGUCUUGUGCUGACACCAUCACACAUCAAAGCCUACAUGUUGAUGACUCUUCAAGGA` is reported as 0.481 ratio.
The bound/input enrichment of `AACAAAGAUUAUCACCAGGAUGUGCGUAAUAACUUUUUGCCACCAAUUAUUGCACGUUUUAUUAGAGUGAAUCCUACCCAAUGGCAGCAGAAAAUUGCCAUGAAAAUGGAGCUGCUCGGA` is reported as 0.285 ratio.
`UCCCCUUAUGAUCAGGCGGCUUGGAUUUUGAAAGCACGGGCGCUGACAGAGAUGGUGUACAUAGAUGAAAUUGAUGUGGACCAGGAAGGAAUUGCUGAAAUGAUCCUGGAUGAAAAUGCU` has a bound/input enrichment of 0.871 ratio.
`GACAGCGACCUGCAGCUGGACCGAAUCUCUGUGUACUAUAAUGAAGCCACAGGUGGCAAGUAUGUCCCUCGAGCUAUCUUGGUGGAUCUAGAACCUGGGACUAUGGACUCCGUUCGCUCA` gave a bound/input enrichment of 0.104 ratio.
The bound/input enrichment of `UACAUGGGCUCACAGAAACAAUUUAAAAUUACUAAACUUUCACCAGCAAUGGGCUGUAAAUUCAGACUAUCGGCCAGAAAUGACUAUGGUACAAGUGGUUUUAGUGAAGAAGUCUUAUAU` is reported as 0.275 ratio.

Study 3
Target: Histone acetyltransferase KAT6A, winged helix 1, GST fusion (KAT6A, Homo sapiens, UniProt Q92794, residues 1-85)
Method: protein binding microarray
Form: double-stranded DNA, one strand shown
Medium: in vitro
Concentration: not given
Setting: 8-mer, flanks averaged, mean of 2 arrays, mostly near background
Relative to: not given
Reading: higher = stronger binding
Residues (chain): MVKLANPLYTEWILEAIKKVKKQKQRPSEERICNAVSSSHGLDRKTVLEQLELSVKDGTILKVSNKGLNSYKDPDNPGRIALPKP
The E-score of `ACATCGCC` is reported as 0.247.
For `CAAATTTG`, the E-score was -0.186.
With `GACGATCA` the E-score was -0.204.
For `ATTCTAGA`, the E-score was -0.24.
`ATGTGACG` has an E-score of -0.0662.
For `GCAATATA`, the E-score was -0.0186.
The E-score of `GGATTTAC` is reported as 0.159.
For `CAACCCCC`, the E-score was -0.101.
`ACCGCAAT` gave an E-score of 0.159.
With `CACAAATA` the E-score was -0.0941.
`TAAGCTGA` has an E-score of -0.0547.
`ATATGTCA` has an E-score of -0.0799.
With `ACCGACGG` the E-score was 0.455.
For `GCTCACAA`, the E-score was -0.0664.
For `AACCCCCA`, the E-score was 0.0216.
With `ACTGGATA` the E-score was -0.273.
`AGTTCACC` gave an E-score of 0.00732.
For `CCATATTC`, the E-score was -0.148.
`AGAGACAT` gave an E-score of -0.142.
With `ACGGCTAA` the E-score was 0.323.
`GCTCTTAC` gave an E-score of 0.0154.
For `TATTAGGA`, the E-score was -0.256.
The E-score of `GAGCACCC` is reported as 0.0525.
The E-score of `GCTCTTCC` is reported as 0.0671.
For `ATCTGTGA`, the E-score was -0.0626.

Study 4
Target: Sal-like protein 4, full length isoform A (SALL4, Homo sapiens, UniProt Q9UJQ4, residues 1-1053)
Chain of UniProt Q9UJQ4 (whole entry, looked up): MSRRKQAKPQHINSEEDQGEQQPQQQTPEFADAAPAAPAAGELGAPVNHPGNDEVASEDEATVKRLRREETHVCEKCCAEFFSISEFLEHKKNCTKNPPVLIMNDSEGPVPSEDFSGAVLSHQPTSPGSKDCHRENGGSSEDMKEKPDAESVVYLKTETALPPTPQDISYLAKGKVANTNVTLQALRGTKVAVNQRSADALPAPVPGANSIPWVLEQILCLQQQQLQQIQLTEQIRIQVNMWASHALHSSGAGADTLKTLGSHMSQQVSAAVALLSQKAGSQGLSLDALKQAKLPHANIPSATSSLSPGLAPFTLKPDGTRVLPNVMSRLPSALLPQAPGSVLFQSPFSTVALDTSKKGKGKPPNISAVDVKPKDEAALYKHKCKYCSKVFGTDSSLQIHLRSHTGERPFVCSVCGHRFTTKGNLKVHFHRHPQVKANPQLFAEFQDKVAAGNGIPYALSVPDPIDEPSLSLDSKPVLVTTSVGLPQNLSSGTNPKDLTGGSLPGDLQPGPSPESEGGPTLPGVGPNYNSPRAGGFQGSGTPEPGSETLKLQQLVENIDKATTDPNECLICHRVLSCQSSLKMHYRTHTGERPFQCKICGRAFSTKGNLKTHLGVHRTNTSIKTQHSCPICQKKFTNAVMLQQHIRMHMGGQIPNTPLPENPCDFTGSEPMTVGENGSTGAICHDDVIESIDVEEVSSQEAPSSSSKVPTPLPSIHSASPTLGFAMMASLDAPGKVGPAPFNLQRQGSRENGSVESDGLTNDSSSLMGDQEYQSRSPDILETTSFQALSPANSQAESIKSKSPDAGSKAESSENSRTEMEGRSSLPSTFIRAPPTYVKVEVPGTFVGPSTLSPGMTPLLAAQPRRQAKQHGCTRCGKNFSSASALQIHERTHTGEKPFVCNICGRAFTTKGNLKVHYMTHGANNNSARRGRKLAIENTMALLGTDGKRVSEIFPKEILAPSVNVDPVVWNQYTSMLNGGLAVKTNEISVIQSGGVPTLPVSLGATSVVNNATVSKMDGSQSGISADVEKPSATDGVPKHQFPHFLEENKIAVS
Method: universal PBM
Form: double-stranded DNA, one strand shown
Medium: in vitro
Concentration: 600 nM
Setting: 8-mer, flanks averaged, mean of replicates
Reading: higher = stronger binding
With `GAGCACAA` the E-score was -0.0373.
The E-score of `AGCGCAAC` is reported as -0.077.
`AACCAATG` has an E-score of 0.128.
For `AGCGGATG`, the E-score was -0.268.
`CATGGCGA` gave an E-score of -0.171.
`CATGTTTC` gave an E-score of 0.16.
With `AACATCTG` the E-score was 0.0865.
For `ACGGTATC`, the E-score was 0.00553.
`GCAGCTAC` gave an E-score of -0.12.
With `ATTGCCAG` the E-score was 0.0769.
`TATCGCGA` gave an E-score of 0.0713.
For `CGTGTCGA`, the E-score was -0.18.
`GATGTACC` gave an E-score of 0.0493.
`AACCATGC` gave an E-score of 0.0102.
For `CCCTTGGA`, the E-score was -0.0215.
The E-score of `ATCTTGAA` is reported as 0.23.
`AGTGTTTG` has an E-score of 0.16.
With `AGCTGAGG` the E-score was -0.109.
`CATTGTGA` gave an E-score of -0.105.

Study 5
Target: ABI1, truncated, D143A, DHFR fusion (Arabidopsis thaliana)
Method: DHFR PCA, deep sequencing
Medium: yeast
Setting: methotrexate growth selection, single substitutions
With: (+)-ABA 0 µM
Relative to: wild-type fitted maximum
Reading: higher = stronger binding
Parent: PYL1, truncated, DHFR fusion (Arabidopsis thaliana); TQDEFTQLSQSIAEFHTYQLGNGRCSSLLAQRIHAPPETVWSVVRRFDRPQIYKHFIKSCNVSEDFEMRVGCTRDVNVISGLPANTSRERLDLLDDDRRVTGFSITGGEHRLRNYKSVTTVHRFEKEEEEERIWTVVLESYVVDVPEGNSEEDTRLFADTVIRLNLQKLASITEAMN; partner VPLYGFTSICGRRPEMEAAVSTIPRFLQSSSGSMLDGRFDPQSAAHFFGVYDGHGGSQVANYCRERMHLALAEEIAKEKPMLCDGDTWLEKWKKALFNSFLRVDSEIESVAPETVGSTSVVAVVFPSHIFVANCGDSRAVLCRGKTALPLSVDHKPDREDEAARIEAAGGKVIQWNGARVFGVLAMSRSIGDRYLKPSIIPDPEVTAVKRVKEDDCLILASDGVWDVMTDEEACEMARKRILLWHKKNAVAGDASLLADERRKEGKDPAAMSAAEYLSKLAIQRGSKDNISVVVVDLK
`G71F`: “relative binding score” 6.38%.
Under “relative binding score”, `M68A` is recorded as 3.83%.
`D96M`: “relative binding score” -3.82%.
Under “relative binding score”, `T39P` is recorded as 1.67%.
For `R24H`, “relative binding score” read 8.91%.
For `E128F`, “relative binding score” read 9.86%.
For `V76S`, “relative binding score” read 0.78%.
For `A170M`, “relative binding score” read -3.87%.
For `R123E`, “relative binding score” read 40.2%.
For `R163I`, “relative binding score” read -9.9%.
`T173D` — result for “relative binding score”: -0.977%.
Under “relative binding score”, `N149D` is recorded as 14.2%.
For `S171V`, “relative binding score” read 15.9%.
`C60E`: “relative binding score” 1.58%.
Under “relative binding score”, `F56I` is recorded as -5.26%.
For `H110P`, “relative binding score” read 67.1%.
`F47L` — result for “relative binding score”: 2.28%.
